Assay results pooled from the literature.
Each line is one published result; not all experiments were run side by side. Numbers after ± are the reported error. In brackets after ≈: the same amount, converted by molar mass.
Organism: Staphylococcus aureus

SMILES | assay | test system | setting | how to read | endpoint | result
CC(C)C1=CC2=CCC3C(C)(C(=O)OCCC[N+](C)(C)C)CCCC3(C)C2CC1 (stereo not shown) | microbial growth, disc diffusion | ATCC29213 | 31.2 µg/disc, 24 h | – | inhibition zone | 15 mm
CCCCCCCCCC(=O)Oc1c(C)c(OC)c2c(c1C)OC(=O)C(CCCCCCCC)C2(O)C=Cc1ccccc1 (stereo not shown) | microbial killing, broth dilution | ATCC25923 | – | – | MBC | > 5000 µg/mL
CC[C@H](C)[C@H](NC(=O)[C@H](CC1CCCCC1)NC(=O)[C@H](CC(C)C)NC(=O)[C@@H](N)CCCN)C(=O)N[C@H](Cc1ccccc1)C(=O)N[C@@H](Cc1cn(Cc2ccccc2)cn1)C(N)=O | – | ATCC 33591, methicillin-resistant | – | – | IC50 | > 20 µg/mL
Cc1cccc(C(=O)Oc2cccccc2=O)c1 | microbial growth, broth dilution | ATCC29213 | – | – | MIC80 | 15.4 µM (≈ 3.7 µg/mL)
CCCCCCCC(=O)Oc1c(C)c(OC)c2c(c1C)OC(=O)[C@@H](CCCCCC)[C@]2(O)/C=C/c1ccccc1 (racemic) | microbial killing, broth dilution | ATCC25923 | – | – | MBC | > 5000 µg/mL
CC[C@H](C)[C@H](NC(=O)[C@H](CCCN)NC(=O)[C@H](CC(N)=O)NC(=O)[C@H](Cc1c[nH]c2ccccc12)NC(=O)[C@H](Cc1ccccc1)NC(=O)[C@H](CCCN)NC(=O)[C@H](CCCCNC(=N)N)NC(=O)[C@H](CC(C)C)NC(=O)[C@H](Cc1c[nH]c2ccccc12)NC(=O)[C@H](CCCN)NC(=O)[C@H](CCCCNC(=N)N)NC(=O)[C@H](CC(C)C)NC(=O)CNC(C)=O)C(=O)N[C@@H](CCCN)C(=O)N[C@@H](CCCCNC(=N)N)C(N)=O | – | – | concentration not given, added: NaCl 150 mM | relative to: no added salt | MIC fold change | 4 fold
N=C(N)NCCC[C@@H]1NC(=O)[C@H](CCCNC(=N)N)NC(=O)[C@@H](C(c2ccccc2)c2ccccc2)NC(=O)[C@H](Cc2c[nH]c3ccccc23)NC(=O)[C@@H](C(c2ccccc2)c2ccccc2)NC(=O)[C@@H](CCCNC(=N)N)NC(=O)[C@@H](CCCNC(=N)N)NC1=O | – | MRSA ATCC BAA-1556 | MIC | – | time to complete killing | 3 to 4 h
CC[C@H](C)[C@H](NC(=O)[C@H](CC1CCCCC1)NC(=O)[C@@H](Cc1ccccc1)NC(=O)[C@@H](N)CCCN)C(=O)N[C@H](Cc1ccccc1)C(=O)N[C@@H](Cc1cn(Cc2ccccc2)cn1)C(N)=O | – | ATCC 33591, methicillin-resistant | – | – | IC50 | > 20 µg/mL
COc1c(C)c(OS(=O)(=O)c2ccccc2)c(C)c2c1C(=O)CC(c1ccccc1)O2 (stereo not shown) | microbial killing, broth dilution | ATCC25923 | – | – | MBC | > 5000 µg/mL
CC(CCCOC(=O)CCC[N+](C)(C)C)C1CCC2C3CCC4CC(OC(=O)CCC[N+](C)(C)C)CCC4(C)C3CC(OC(=O)CCC[N+](C)(C)C)C12C (stereo not shown) | microbial growth, disc diffusion | ATCC29213 | 15.6 µg/disc, 24 h | – | inhibition zone | 18 mm
C=C(C)C(=O)NCCCCOCc1cn(CCCCNC(=O)C(=C)C)nn1 | growth, turbidity OD600 | – | 24 h | – | IC50 | > 100 µM
CCCCCCCCCC(=O)N[C@@H](Cc1c[nH]c2ccccc12)C(=O)N[C@H](CC(N)=O)C(=O)N[C@@H](CC(=O)O)C(=O)N[C@@H]1C(=O)NCC(=O)N[C@@H](CCCNC(=O)OC2/C=C/CCCCC2)C(=O)N[C@@H](CC(=O)O)C(=O)N[C@H](C)C(=O)N[C@@H](CC(=O)O)C(=O)NCC(=O)N[C@H](CO)C(=O)N[C@@H]([C@H](C)CC(=O)O)C(=O)N[C@@H](CC(=O)c2ccccc2N)C(=O)O[C@@H]1C (stereo partly shown) | planktonic bacterial growth, isothermal microcalorimetry | MSSA | 2.5 µg/mL, 24 h, 37 °C, added: TAG hydrogel | – | peak heat flow time | 0 h
C[n+]1nn(CCCCN2C(=O)C=CC2=O)cc1COCCCCN1C(=O)C=CC1=O | growth, turbidity OD600 | – | 24 h | – | IC50 | > 100 µM
CC(C)c1ccc2c(c1)CCC1C(C)(CN(CC(O)C[N+](C)(C)C)CC(O)C[N+](C)(C)C)CCCC21C (stereo not shown) | microbial growth, disc diffusion | ATCC29213 | 62.5 µg/disc, 24 h | – | inhibition zone | 14 mm
COc1cc2c(cc1OC)-c1cc3ccc(OC)c(OC)c3c[n+]1CC2.[Cl][Fe-]([Cl])([Cl])[Cl] | – | – | 24 h, 37 °C | – | MBC | > 800 µM
C=CC(=O)NCCCCOCc1cn(CCCCNC(=O)C=C)n[n+]1C | growth, turbidity OD600 | – | 24 h | – | IC50 | > 100 µM
CC(CCCOC(=O)CCC[N+](C)(C)C)C1CCC2C3CCC4CC(OC(=O)CCC[N+](C)(C)C)CCC4(C)C3CCC12C (stereo not shown) | microbial growth, disc diffusion | ATCC29213 | 15.6 µg/disc, 24 h | – | inhibition zone | 11 mm
CCCCCCCC(=O)Oc1c(C)c(OC)c2c(/C=C/c3ccccc3)c(CCCCCC)c(=O)oc2c1C | microbial killing, broth dilution | ATCC25923 | – | – | MBC | > 5000 µg/mL
C=CC(=O)NCCCCCCCCCCOCc1cn(CCCCCCCCCCNC(=O)C=C)n[n+]1C | microbial growth, absorbance | – | 24 h | – | IC50 | 52 µM
CC(C)[C@@H](NC(=O)[C@H](CC1CCCCC1)NC(=O)[C@@H](Cc1c[nH]c2ccccc12)NC(=O)[C@@H](N)CCCN)C(=O)N[C@H](Cc1ccccc1)C(=O)N[C@@H](Cc1cn(Cc2ccccc2)cn1)C(N)=O | – | ATCC 33591, methicillin-resistant | – | – | IC50 | > 20 µg/mL
O=C(Oc1cccccc1=O)c1ccccc1 | microbial growth, broth dilution | ATCC29213 | – | – | MIC80 | 19.8 µM (≈ 4.48 µg/mL)
C=CC(=O)NCCCCOCc1cn(CCCCNC(=O)C=C)nn1 | growth, turbidity OD600 | – | 24 h | – | IC50 | > 100 µM
C=C1CNCC2Nc3c(F)cc(Br)cc3C12CCNS(=O)(=O)c1ccc(Cl)cc1 (stereo not shown) | – | MRSA ATCC BAA-44 | added: cefazolin | – | minimum resensitizing concentration | 4 µg/mL
CC[C@H](C)[C@H](NC(=O)[C@H](CC1CCCCC1)NC(=O)[C@H](Cc1c[nH]c2ccccc12)NC(=O)[C@@H](N)CCCN)C(=O)N[C@H](Cc1ccccc1)C(=O)N[C@@H](Cc1cn(Cc2ccccc2)cn1)C(N)=O | – | ATCC 33591, methicillin-resistant | – | – | IC50 | > 20 µg/mL
C=CC(=O)NCCCCCCOCc1cn(CCCCCCNC(=O)C=C)nn1 | growth, turbidity OD600 | – | 24 h | – | IC50 | > 100 µM
COc1cc2c(cc1OC)C1Cc3ccc(OC)c(OC)c3C[NH+]1CC2.[Cl][Fe-]([Cl])([Cl])[Cl] (stereo not shown) | – | – | 24 h, 37 °C | – | MIC50 | 1180 µM
O=c1c(O)ccccc1O | microbial growth, broth dilution | ATCC29213 | – | – | MIC80 | 66.7 µM (≈ 9.21 µg/mL)
C=C(NC(=O)c1csc(-c2nc3c(cc2O)-c2nc(cs2)C(=O)NC(C(C)O)C(=O)NC(=C(C)OC)c2nc(cs2)C(=O)NC2c4nc(cs4)C(=O)NC(COC(=O)c4c5c6c(cccc6n4O)COC(=O)C(OC4CC(C)(O)C(N(C)C)C(C)O4)C2OC5)c2nc-3cs2)n1)C(N)=O (stereo not shown) | – | ATCC 43300 MRSA | 1/2×MIC, 1 h exposure | – | post-antibiotic effect | 0.36 ± 0.05 h
